Results pooled from the literature.
Compare with care: the assays were run in different laboratories. ± marks the error that the study gave.

| Compound | target or system | test | system | setting | how to read | measurement | result |
| --- | --- | --- | --- | --- | --- | --- | --- |
| O=[N+]([O-])c1ccc(C2=[N+]([O-])c3ccccc3N3CCCN=C23)cc1 | Porphyromonas sp. | – | – | – | – | MIC | ≤ 0.06 µg/mL |
| CC[C@H](C)CCCCC(=O)N[C@@H](CCN)C(=O)N[C@H](C(=O)N[C@H](CO)C(=O)N[C@H]1CCNC(=O)[C@H](CC(C)C)NC(=O)[C@H](CCN)NC(=O)[C@H](CCN)NC(=O)[C@H]([C@@H](C)CC)NC(=O)[C@@H](CC(C)C)NC(=O)[C@H](CCN)NC1=O)[C@@H](C)O | Klebsiella pneumoniae, Acinetobacter baumannii | – | – | added: lipid A or LPS | – | MIC | increased |
| CCCCc1ccc(-c2nc(C)c(C(C)=NNC(=N)N)s2)cc1 | Staphylococcus aureus | – | NRS37 VISA | – | – | MIC | 2.6 µg/mL |
| CC/C=C\C/C=C\C/C=C\C/C=C\C/C=C\C/C=C\CCC(=O)Nc1ccn(C2OC(CO)C(O)C2(F)F)c(=O)n1 (centres unmarked) | RXF 393 | NCI60 screen | – | – | – | CC50 | 45.1 µM |
| CN[C@@H]1[C@H](O)[C@H](NC)[C@H]2O[C@]3(O)[C@H](O[C@@H]2[C@H]1O)O[C@H](C)C[C@@]3(O)CNCCC1CCOCC1 | Mycobacteroides abscessus | – | ATCC 19977 whiB7 MAB_2355 deleted | 120 h | – | MIC | 8 µg/mL |
| CCC(C)C(=O)OC1C(C)C(OC)C=COC2(C)Oc3c(C)c(O)c4c(c3C2=O)C2=NC3(CCN(CC(C)C)CC3)NC2=C(NC(=O)C(C)=CC=CC(C)C(O)C(C)C(O)C1C)C4=O (mixture of isomers) | Mycobacteroides abscessus | – | ATCC 19977 arr deletion | 90% growth inhibition | – | MIC | 28 nM |
| c1ccc(CCNC2CCCc3c2[nH]c2ccc(C4CCCCC4)cc32)cc1 (centres unmarked) | Streptococcus pyogenes | broth microdilution | serotype M1T1, THY medium | – | – | MIC | 1 µg/mL |
| CN(C)CC1CCCCC1(O)c1cccc(O)c1 (centres unmarked) | human P-glycoprotein | – | Caco-2 TC7 monolayer | 100 µM, 3 h, apical pH 7.4, basolateral pH 7.4, added: cyclosporine A 10 µM | relative to: B-to-A over A-to-B | efflux ratio | 1.2 |
| CN(C)CCCNC(=O)[C@@H]1NC(=O)[C@@H]2Cc3ccc(cc3)Oc3cc4cc(c3O)-c3ccc5c(c[nH]c5c3)C[C@@H](NC(=O)C(NC(=O)CCCCCN)c3ccc(O)cc3)C(=O)N[C@H](c3ccc(O)cc3)C(=O)N[C@H]4C(=O)N[C@@H](C(=O)N2C)c2ccc(cc2)Oc2cc1ccc2O (some centres unmarked) | Enterococcus faecium | – | WCC 0553, VRE-B, BHI medium | – | – | MIC | 1 to 2 µg/mL |
| CN[C@@H]1[C@H](O)[C@H](NC)[C@H]2O[C@]3(O)[C@H](O[C@@H]2[C@H]1O)O[C@H](C)C[C@@]3(O)CNCc1ccccc1 | Streptococcus pyogenes | – | ATCC 700294 | – | – | MIC | 3.1 µg/mL |
| CN[C@](C)(C[18F])C(=O)O | SK-OV-3 tumour model | – | host not given, muscle | 15 min, tumour-bearing | – | tracer uptake | 1.3 %ID/g |
| CC[C@@H](C)[C@@H](NC(=O)[C@@H](C)NC(=O)[C@@H](CCCCN)NC(=O)[C@@H](CC(C)C)NC(=O)[C@@H](C)NC(=O)[C@H](NC(=O)[C@@H](Cc1c[nH]cn1)NC(=O)[C@@H](CC(C)C)NC(=O)[C@H](NC(=O)[C@H](NC(=O)[C@@H](CCCCN)NC(=O)[C@@H](CCCCN)NC(=O)[C@@H](C)NC(=O)[C@@H](CO)NC(=O)[C@@H](CCCCN)NC(=O)[C@@H](Cc1ccccc1)NC(=O)[C@H](NC(=O)[C@@H](CCCCN)NC(=O)[C@@H](CC(C)C)NC(=O)[C@@H](Cc1ccccc1)NC(=O)[C@@H](CO)NC(=O)[C@@H](CCCCN)NC(=O)[C@@H](Cc1c[nH]c2ccccc12)NC(=O)[C@@H](CCCCN)NC(C)=O)[C@H](C)O)[C@H](C)O)C(C)C)[C@H](C)O)C(=O)N[C@H](CO)C(=O)N[C@H](CO)C(N)=O | Acinetobacter baumannii | broth microdilution | ATCC 19606 | 24 h, 37 °C | – | MIC | 1500 nM |
| CC[C@H](C)[C@H](NC(=O)[C@@H](NC(=O)CN)C(C)C)C(=O)N[C@@H](Cc1ccccc1)C(=O)N[C@@H](CC(N)=O)C(=O)N[C@@H](C)C(=O)N[C@@H](CC(C)C)C(=O)N[C@@H](CCCCN)C(=O)NCC(=O)N[C@H](C(=O)N[C@@H](C)C(=O)N[C@@H](CCCCN)C(=O)N[C@H](C(=O)N[C@H](C(=O)N[C@@H](C)C(=O)N[C@@H](C)C(=O)N[C@@H](CCC(N)=O)C(=O)N[C@@H](CC(C)C)C(=O)N[C@@H](CC(C)C)C(=O)N[C@@H](CCCCN)C(=O)N[C@@H](CCCCN)C(=O)N[C@@H](C)C(=O)N[C@@H](CCCNC(=N)N)C(=O)N[C@H]1CSSC[C@@H](C(=O)O)NC(=O)[C@H](CO)NC(=O)[C@H](CCCCN)NC(=O)[C@H](CC(=O)O)NC(=O)[C@H](CC(C)C)NC(=O)[C@H](CCCCN)NC1=O)C(C)C)[C@@H](C)O)C(C)C | Staphylococcus aureus | – | NCTC 10788, Mueller-Hinton broth | added: FeCl3 4 mM | – | MIC | 2000 nM |
| CO[C@H]1/C=C/O[C@@]2(C)Oc3c(C)c(O)c4c(c3C2=O)C2=NC3(CCN(CC(C)C)CC3)NC2=C(NC(=O)/C(C)=C\C=C\[C@H](C)[C@H](O)[C@@H](C)[C@@H](O)[C@@H](C)[C@H](OC(=O)c2ccccc2C(F)(F)F)[C@@H]1C)C4=O | Mycobacteroides abscessus | – | ATCC 19977 arr deletion | 90% growth inhibition | – | MIC | 120 nM |
| CCCCCCCCCCCCCCCCCCCCCCSCC1OC(OC2C(N)CC(N)C(OC3OC(CN)C(O)CC3N)C2O)C(O)C(N)C1O (centres unmarked) | Shigella | – | clinical isolate | – | – | MIC | > 150 µg/mL |
| CC[C@H](C)[C@H](NC(=O)[C@H](CO)NC(=O)[C@H](CO)NC(=O)[C@H](Cc1ccccc1)NC(=O)CN)C(=O)N[C@@H](Cc1ccccc1)C(=O)N[C@@H](CCCNC(=N)N)C(=O)NCC(=O)N[C@H](C(=O)N[C@@H](C)C(=O)N[C@@H](CCCCN)C(N)=O)C(C)C | Escherichia coli | – | ATCC 8739 | added: 8 mM ZnCl2 | – | MIC | > 128000 nM |
| CN[C@@H]1[C@H](O)[C@H](NC)[C@H]2O[C@]3(O)[C@H](O[C@@H]2[C@H]1O)O[C@H](C)C[C@@]3(O)CNCc1ccc(F)cc1 | Mycobacteroides abscessus | – | ATCC 19977 whiB7 MAB_2355 deleted | 120 h | – | MIC | 16 µg/mL |
| CN1C(=O)[C@@H]2NC(=O)[C@@H]3NC(=O)[C@@H](c4ccc(O)cc4)NC(=O)[C@H](NC(=O)C(N)c4ccc(O)cc4)Cc4c[nH]c5cc(ccc45)-c4cc3cc(c4O)Oc3ccc(cc3)C[C@H]1C(=O)N[C@@H](C(=O)O)c1ccc(O)c(c1)Oc1ccc2cc1 (some centres unmarked) | Enterococcus faecium | – | WCC 0502, VRE-A | – | – | MIC | 4 to 8 µg/mL |

| Compound | target or system | test | system | setting | how to read | measurement | result |
| --- | --- | --- | --- | --- | --- | --- | --- |
| COc1ccc(C2=[N+]([O-])c3ccccc3N3CC(C)(C)CN=C23)cc1 | Parvimonas micra | – | ATCC 3870 | – | – | MIC | ≤ 0.06 µg/mL |
| OB(O)c1cnn(-c2cc(Cl)ncn2)c1 | Enterobacter cloacae | bacterial growth | AmpC-overproducing clinical isolate | cefotaxime alone | – | MIC | 1 µg/mL |
| CCCCCCCCCCCC[S+]([O-])CC1OC(OC2C(N)CC(N)C(OC3OC(CN)C(O)CC3N)C2O)C(O)C(N)C1O (mixture of isomers) | Shigella | – | clinical isolate | – | – | MIC | 150 µg/mL |
| CN[C@@H]1[C@H](O)[C@H](NC)[C@H]2O[C@]3(O)[C@H](O[C@@H]2[C@H]1O)O[C@H](C)C[C@@]3(O)CNCCc1ccc(F)cc1 | Mycobacteroides abscessus | – | ATCC 19977 ∆whiB7 ∆tap | 120 h | – | MIC | 2 µg/mL |
| CN1C(=O)[C@@H]2NC(=O)[C@@H]3NC(=O)[C@@H](c4ccc(O)cc4)NC(=O)[C@H](NC(=O)C(NCc4cc(F)cc(F)c4F)c4ccc(O)cc4)Cc4c[nH]c5cc(ccc45)-c4cc3cc(c4O)Oc3ccc(cc3)C[C@H]1C(=O)N[C@@H](C(=O)O)c1ccc(O)c(c1)Oc1ccc2cc1 (some centres unmarked) | Enterococcus faecium | – | brain heart infusion medium | – | – | MIC | 4 µg/mL |
| CCCCCCCCCCCCCC(=O)N[C@H](CCN)C(=O)N[C@@H]1C(=O)N[C@@H](CCN)C(=O)N[C@@H](CC(C)C)C(=O)N[C@@H](CCN)C(=O)N[C@H](Cc2ccccc2)C(=O)N[C@@H](CC(C)C)C(=O)N[C@@H](CCN)C(=O)N[C@H](Cc2ccc(O)cc2)C(=O)N[C@@H](C(C)C)C(=O)N[C@@H](CC(=O)O)C(=O)O[C@@H]1C | Enterobacter cloacae | broth microdilution | BNCC 185028 | – | – | MIC | 4 µg/mL |
| Cc1cccc(C)c1SCC1OC(OC2C(N)CC(N)C(OC3OC(CN)C(O)CC3N)C2O)C(O)C(N)C1O (centres unmarked) | Bacillus cereus | – | ATCC 11778 | – | – | MIC | 37.5 µg/mL |
| C[N+]1=C2C(c3ccc([N+](=O)[O-])cc3)=[N+]([O-])c3ccccc3N2CCC1 | Parvimonas micra | – | ATCC 3870 | – | – | MIC | ≤ 0.06 µg/mL |
| CCCCCCCCOC(=O)[C@@H]1NC(=O)[C@@H]2Cc3ccc(cc3)Oc3cc4cc(c3O)-c3ccc5c(c[nH]c5c3)C[C@@H](NC(=O)C(N)c3ccc(O)cc3)C(=O)N[C@H](c3ccc(O)cc3)C(=O)N[C@H]4C(=O)N[C@@H](C(=O)N2C)c2ccc(cc2)Oc2cc1ccc2O (some centres unmarked) | Enterococcus faecium | – | brain heart infusion medium | – | – | MIC | > 128 µg/mL |
| N=C(N)NCCC[C@@H]1NC(=O)[C@H](CCCCNC(=O)CC[C@H](NC(=O)CCOCCOCCOCCOCCNC(=O)CN2CCN(CC(=O)O)CCN(CC(=O)O)CCN(CC(=O)O)CC2)C(=O)NCCCC[C@@H]2NC(=O)[C@@H](Cc3ccccc3)NC(=O)[C@H](CC(=O)O)NC(=O)CNC(=O)[C@H](CCCNC(=N)N)NC2=O)NC(=O)[C@@H](Cc2ccccc2)NC(=O)[C@H](CC(=O)O)NC(=O)CNC1=O [indium-111 labelled] | – | – | athymic nude mice, female, U-87 MG glioma xenograft, tumour and liver | intravenous, 4 h | relative to: tumour over liver | tumour to tissue ratio | 1.84 ± 0.23 |
| [O-][N+]1=C(c2ccccc2)C2=NCCN2c2ccccc21 | Parvimonas micra | – | ATCC 3870 | – | – | MIC | ≤ 0.06 µg/mL |
| CCN(CC)Cc1cc(Nc2c(C3CCCC3)c(C)nc3cc(Cl)ccc23)ccc1O | dengue virus type 2 | replicon replication, luciferase reporter | BHK-21 DENV2 Rluc replicon | 50 µM, 24 h | – | inhibition | inhibited |
| O=C1C[C@@H](c2ccc(O)cc2)Oc2cc(O)ccc21 | – | – | Sprague-Dawley rat, Freund's adjuvant arthritis | oral, 10 mg/kg, 2 h, added: aconitine 1 mg/kg | – | hind paw volume | 1.81 ± 0.04 mL |
| CN1C(=O)[C@@H]2NC(=O)[C@@H]3NC(=O)[C@@H](c4ccc(O)cc4)NC(=O)[C@H](NC(=O)C(NCc4ccc(B(O)O)cc4)c4ccc(O)cc4)Cc4c[nH]c5cc(ccc45)-c4cc3cc(c4O)Oc3ccc(cc3)C[C@H]1C(=O)N[C@@H](C(=O)O)c1ccc(O)c(c1)Oc1ccc2cc1 (some centres unmarked) | Enterococcus faecium | – | brain heart infusion medium | – | – | MIC | 8 µg/mL |
| CO[C@H]1/C=C/O[C@@]2(C)Oc3c(C)c(O)c4c(c3C2=O)C2=NC3(CCN(CC(C)C)CC3)NC2=C(NC(=O)/C(C)=C\C=C\[C@H](C)[C@H](O)[C@@H](C)[C@@H](O)[C@@H](C)[C@H](OC(=O)c2ccccc2-c2ccccc2)[C@@H]1C)C4=O | Mycobacteroides abscessus | – | ATCC 19977 arr deletion | 90% growth inhibition | – | MIC | 140 nM |
| [O-][N+]1=C(c2ccc(Cl)cc2)C2=NCCCCN2c2ccccc21 | Parvimonas micra | – | ATCC 3870 | – | – | MIC | 0.25 µg/mL |
| N=C(N)NCCC[C@@H]1NC(=O)[C@H](CCCCNC(=O)CCOCCOCCOCCOCCNC(=O)CC[C@H](NC(=O)CCOCCOCCOCCOCCNC(=O)CC[C@H](NC(=O)CN2CCN(CC(=O)O)CCN(CC(=O)O)CCN(CC(=O)O)CC2)C(=O)NCCOCCOCCOCCOCCC(=O)N[C@@H](CCC(=O)NCCOCCOCCOCCOCCC(=O)NCCCC[C@@H]2NC(=O)[C@@H](Cc3ccccc3)NC(=O)[C@H](CC(=O)O)NC(=O)CNC(=O)[C@H](CCCNC(=N)N)NC2=O)C(=O)NCCOCCOCCOCCOCCC(=O)NCCCC[C@@H]2NC(=O)[C@@H](Cc3ccccc3)NC(=O)[C@H](CC(=O)O)NC(=O)CNC(=O)[C@H](CCCNC(=N)N)NC2=O)C(=O)NCCOCCOCCOCCOCCC(=O)NCCCC[C@@H]2NC(=O)[C@@H](Cc3ccccc3)NC(=O)[C@H](CC(=O)O)NC(=O)CNC(=O)[C@H](CCCNC(=N)N)NC2=O)NC(=O)[C@@H](Cc2ccccc2)NC(=O)[C@H](CC(=O)O)NC(=O)CNC1=O [indium-111 labelled] | – | – | female athymic nude mice, intestine | intravenous, 3 µCi, 24 h, U-87 MG glioma xenograft | – | tissue uptake | 8.53 ± 1.88 %ID/g |
